{"data": "Published values of several laboratories", "organism": "Plasmodium berghei", "note": "Protocols differ between the studies behind these lines. ± marks the error that the study gave."}
{"SMILES": "CCN1CCN(Cc2ccc(Nc3nc4ccc(Oc5ccnc(NC(=O)C6CCN(C)CC6)c5)cc4n3C)cc2C(F)(F)F)CC1", "test system": "HepG2, ANKA GFP-Luc", "conditions": "liver stage", "measurement": "EC50", "result": "1600 ± 400 nM"}
{"SMILES": "O=C(NCCN1CCCC1)c1cc(-c2ccc(CN3CCOCC3)cc2)nc2ccc(F)cc12", "test": "parasite growth, luciferase bioluminescence", "test system": "HepG2 spheroids infected", "conditions": "24 h", "measurement": "EC50", "result": "1.28 nM"}
{"SMILES": "COc1ccc(C[C@H](NC(=O)[C@H](C)NC(=O)CN2CCOCC2)C(=O)N[C@@H](Cc2ccccc2)C(=O)C2(C)CO2)cc1 (stereo in doubt)", "test system": "ANKA, mouse", "conditions": "dose not given, one month", "measurement": "recrudescence rate", "result": "< 2%"}
{"SMILES": "C[C@H]1[C@H](OC(=O)CCC(=O)O)O[C@@H]2O[C@@]3(C)CC[C@H]4[C@H](C)CC[C@@H]1[C@@]24OO3", "test system": "NK65/GFP, infected mice", "conditions": "oral gavage, 65 µmol/kg once daily, 96 h dosing period", "measurement": "cured mice", "result": "0%"}
{"SMILES": "CCOC(=O)C1=C(C)NC2=C(C(=O)OC(c3ccc(OC)c(OC)c3)C2)C1c1ccccc1Cl (stereo not drawn)", "test system": "KBG-173, mice", "conditions": "oral, 50 mg/kg, day 6 post-exposure, vehicle PEG400, modified Thompson test", "measurement": "parasitaemia inhibition", "result": "> 75%"}
{"SMILES": "Cc1ccc(-c2nc(Nc3ccc(C(=O)N4CCC(N5CCCC5)CC4)cc3)ncc2Cl)s1", "test": "liver stage parasite load, luciferase", "test system": "HepG2, ANKA", "conditions": "44 h post-infection", "measurement": "EC50", "result": "5200 nM"}
{"SMILES": "O=C1C(O)=C([C@H]2CC[C@H](c3ccc(Cl)cc3)CC2)C(=O)c2ccccc21", "test": "parasite growth, bioluminescence", "test system": "HC04, ANKA GFP-Luc, liver stage", "conditions": "0.016 µM", "measurement": "inhibition", "result": "> 50%"}
{"SMILES": "O=C(c1ccc(Nc2ncc(Cl)c(-c3ccc(Cl)s3)n2)cc1)N1CCC(N2CCCC2)CC1", "test": "liver stage parasite load, luciferase", "test system": "HepG2, ANKA", "conditions": "44 h post-infection", "measurement": "EC50", "result": "2800 nM"}
{"SMILES": "CC1(C)c2nc(-c3ccc(F)cc3)c(Nc3ccc(F)cc3)n2CCN1C(=O)CN", "test": "parasite growth, luciferase bioluminescence", "test system": "HepG2 spheroids infected", "conditions": "24 h", "measurement": "EC50", "result": "45.8 nM"}
{"note": "Excerpt of the above:"}
{"SMILES": "CCOC(=O)C1=C(C)NC2=C(C(=O)OC(c3ccc(OC)c(OC)c3)C2)C1c1ccccc1Cl (stereo not drawn)", "test system": "KBG-173, mice", "conditions": "oral, 50 mg/kg, day 6 post-exposure, vehicle PEG400, modified Thompson test", "measurement": "parasitaemia inhibition", "result": "> 75%"}
